Measurements of several laboratories.
A part holds a random share of what one study measured. Changes are numbered by the printed parent chain.
Sequence of UniProt Q712K3 (whole entry, looked up): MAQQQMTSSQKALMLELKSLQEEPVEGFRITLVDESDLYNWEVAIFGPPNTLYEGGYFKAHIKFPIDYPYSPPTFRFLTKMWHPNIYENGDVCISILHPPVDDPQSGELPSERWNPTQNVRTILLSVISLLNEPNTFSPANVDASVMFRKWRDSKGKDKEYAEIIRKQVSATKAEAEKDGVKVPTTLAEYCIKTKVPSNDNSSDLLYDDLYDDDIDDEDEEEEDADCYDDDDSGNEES
Sequence of UniProt Q9NR09 (whole entry, looked up): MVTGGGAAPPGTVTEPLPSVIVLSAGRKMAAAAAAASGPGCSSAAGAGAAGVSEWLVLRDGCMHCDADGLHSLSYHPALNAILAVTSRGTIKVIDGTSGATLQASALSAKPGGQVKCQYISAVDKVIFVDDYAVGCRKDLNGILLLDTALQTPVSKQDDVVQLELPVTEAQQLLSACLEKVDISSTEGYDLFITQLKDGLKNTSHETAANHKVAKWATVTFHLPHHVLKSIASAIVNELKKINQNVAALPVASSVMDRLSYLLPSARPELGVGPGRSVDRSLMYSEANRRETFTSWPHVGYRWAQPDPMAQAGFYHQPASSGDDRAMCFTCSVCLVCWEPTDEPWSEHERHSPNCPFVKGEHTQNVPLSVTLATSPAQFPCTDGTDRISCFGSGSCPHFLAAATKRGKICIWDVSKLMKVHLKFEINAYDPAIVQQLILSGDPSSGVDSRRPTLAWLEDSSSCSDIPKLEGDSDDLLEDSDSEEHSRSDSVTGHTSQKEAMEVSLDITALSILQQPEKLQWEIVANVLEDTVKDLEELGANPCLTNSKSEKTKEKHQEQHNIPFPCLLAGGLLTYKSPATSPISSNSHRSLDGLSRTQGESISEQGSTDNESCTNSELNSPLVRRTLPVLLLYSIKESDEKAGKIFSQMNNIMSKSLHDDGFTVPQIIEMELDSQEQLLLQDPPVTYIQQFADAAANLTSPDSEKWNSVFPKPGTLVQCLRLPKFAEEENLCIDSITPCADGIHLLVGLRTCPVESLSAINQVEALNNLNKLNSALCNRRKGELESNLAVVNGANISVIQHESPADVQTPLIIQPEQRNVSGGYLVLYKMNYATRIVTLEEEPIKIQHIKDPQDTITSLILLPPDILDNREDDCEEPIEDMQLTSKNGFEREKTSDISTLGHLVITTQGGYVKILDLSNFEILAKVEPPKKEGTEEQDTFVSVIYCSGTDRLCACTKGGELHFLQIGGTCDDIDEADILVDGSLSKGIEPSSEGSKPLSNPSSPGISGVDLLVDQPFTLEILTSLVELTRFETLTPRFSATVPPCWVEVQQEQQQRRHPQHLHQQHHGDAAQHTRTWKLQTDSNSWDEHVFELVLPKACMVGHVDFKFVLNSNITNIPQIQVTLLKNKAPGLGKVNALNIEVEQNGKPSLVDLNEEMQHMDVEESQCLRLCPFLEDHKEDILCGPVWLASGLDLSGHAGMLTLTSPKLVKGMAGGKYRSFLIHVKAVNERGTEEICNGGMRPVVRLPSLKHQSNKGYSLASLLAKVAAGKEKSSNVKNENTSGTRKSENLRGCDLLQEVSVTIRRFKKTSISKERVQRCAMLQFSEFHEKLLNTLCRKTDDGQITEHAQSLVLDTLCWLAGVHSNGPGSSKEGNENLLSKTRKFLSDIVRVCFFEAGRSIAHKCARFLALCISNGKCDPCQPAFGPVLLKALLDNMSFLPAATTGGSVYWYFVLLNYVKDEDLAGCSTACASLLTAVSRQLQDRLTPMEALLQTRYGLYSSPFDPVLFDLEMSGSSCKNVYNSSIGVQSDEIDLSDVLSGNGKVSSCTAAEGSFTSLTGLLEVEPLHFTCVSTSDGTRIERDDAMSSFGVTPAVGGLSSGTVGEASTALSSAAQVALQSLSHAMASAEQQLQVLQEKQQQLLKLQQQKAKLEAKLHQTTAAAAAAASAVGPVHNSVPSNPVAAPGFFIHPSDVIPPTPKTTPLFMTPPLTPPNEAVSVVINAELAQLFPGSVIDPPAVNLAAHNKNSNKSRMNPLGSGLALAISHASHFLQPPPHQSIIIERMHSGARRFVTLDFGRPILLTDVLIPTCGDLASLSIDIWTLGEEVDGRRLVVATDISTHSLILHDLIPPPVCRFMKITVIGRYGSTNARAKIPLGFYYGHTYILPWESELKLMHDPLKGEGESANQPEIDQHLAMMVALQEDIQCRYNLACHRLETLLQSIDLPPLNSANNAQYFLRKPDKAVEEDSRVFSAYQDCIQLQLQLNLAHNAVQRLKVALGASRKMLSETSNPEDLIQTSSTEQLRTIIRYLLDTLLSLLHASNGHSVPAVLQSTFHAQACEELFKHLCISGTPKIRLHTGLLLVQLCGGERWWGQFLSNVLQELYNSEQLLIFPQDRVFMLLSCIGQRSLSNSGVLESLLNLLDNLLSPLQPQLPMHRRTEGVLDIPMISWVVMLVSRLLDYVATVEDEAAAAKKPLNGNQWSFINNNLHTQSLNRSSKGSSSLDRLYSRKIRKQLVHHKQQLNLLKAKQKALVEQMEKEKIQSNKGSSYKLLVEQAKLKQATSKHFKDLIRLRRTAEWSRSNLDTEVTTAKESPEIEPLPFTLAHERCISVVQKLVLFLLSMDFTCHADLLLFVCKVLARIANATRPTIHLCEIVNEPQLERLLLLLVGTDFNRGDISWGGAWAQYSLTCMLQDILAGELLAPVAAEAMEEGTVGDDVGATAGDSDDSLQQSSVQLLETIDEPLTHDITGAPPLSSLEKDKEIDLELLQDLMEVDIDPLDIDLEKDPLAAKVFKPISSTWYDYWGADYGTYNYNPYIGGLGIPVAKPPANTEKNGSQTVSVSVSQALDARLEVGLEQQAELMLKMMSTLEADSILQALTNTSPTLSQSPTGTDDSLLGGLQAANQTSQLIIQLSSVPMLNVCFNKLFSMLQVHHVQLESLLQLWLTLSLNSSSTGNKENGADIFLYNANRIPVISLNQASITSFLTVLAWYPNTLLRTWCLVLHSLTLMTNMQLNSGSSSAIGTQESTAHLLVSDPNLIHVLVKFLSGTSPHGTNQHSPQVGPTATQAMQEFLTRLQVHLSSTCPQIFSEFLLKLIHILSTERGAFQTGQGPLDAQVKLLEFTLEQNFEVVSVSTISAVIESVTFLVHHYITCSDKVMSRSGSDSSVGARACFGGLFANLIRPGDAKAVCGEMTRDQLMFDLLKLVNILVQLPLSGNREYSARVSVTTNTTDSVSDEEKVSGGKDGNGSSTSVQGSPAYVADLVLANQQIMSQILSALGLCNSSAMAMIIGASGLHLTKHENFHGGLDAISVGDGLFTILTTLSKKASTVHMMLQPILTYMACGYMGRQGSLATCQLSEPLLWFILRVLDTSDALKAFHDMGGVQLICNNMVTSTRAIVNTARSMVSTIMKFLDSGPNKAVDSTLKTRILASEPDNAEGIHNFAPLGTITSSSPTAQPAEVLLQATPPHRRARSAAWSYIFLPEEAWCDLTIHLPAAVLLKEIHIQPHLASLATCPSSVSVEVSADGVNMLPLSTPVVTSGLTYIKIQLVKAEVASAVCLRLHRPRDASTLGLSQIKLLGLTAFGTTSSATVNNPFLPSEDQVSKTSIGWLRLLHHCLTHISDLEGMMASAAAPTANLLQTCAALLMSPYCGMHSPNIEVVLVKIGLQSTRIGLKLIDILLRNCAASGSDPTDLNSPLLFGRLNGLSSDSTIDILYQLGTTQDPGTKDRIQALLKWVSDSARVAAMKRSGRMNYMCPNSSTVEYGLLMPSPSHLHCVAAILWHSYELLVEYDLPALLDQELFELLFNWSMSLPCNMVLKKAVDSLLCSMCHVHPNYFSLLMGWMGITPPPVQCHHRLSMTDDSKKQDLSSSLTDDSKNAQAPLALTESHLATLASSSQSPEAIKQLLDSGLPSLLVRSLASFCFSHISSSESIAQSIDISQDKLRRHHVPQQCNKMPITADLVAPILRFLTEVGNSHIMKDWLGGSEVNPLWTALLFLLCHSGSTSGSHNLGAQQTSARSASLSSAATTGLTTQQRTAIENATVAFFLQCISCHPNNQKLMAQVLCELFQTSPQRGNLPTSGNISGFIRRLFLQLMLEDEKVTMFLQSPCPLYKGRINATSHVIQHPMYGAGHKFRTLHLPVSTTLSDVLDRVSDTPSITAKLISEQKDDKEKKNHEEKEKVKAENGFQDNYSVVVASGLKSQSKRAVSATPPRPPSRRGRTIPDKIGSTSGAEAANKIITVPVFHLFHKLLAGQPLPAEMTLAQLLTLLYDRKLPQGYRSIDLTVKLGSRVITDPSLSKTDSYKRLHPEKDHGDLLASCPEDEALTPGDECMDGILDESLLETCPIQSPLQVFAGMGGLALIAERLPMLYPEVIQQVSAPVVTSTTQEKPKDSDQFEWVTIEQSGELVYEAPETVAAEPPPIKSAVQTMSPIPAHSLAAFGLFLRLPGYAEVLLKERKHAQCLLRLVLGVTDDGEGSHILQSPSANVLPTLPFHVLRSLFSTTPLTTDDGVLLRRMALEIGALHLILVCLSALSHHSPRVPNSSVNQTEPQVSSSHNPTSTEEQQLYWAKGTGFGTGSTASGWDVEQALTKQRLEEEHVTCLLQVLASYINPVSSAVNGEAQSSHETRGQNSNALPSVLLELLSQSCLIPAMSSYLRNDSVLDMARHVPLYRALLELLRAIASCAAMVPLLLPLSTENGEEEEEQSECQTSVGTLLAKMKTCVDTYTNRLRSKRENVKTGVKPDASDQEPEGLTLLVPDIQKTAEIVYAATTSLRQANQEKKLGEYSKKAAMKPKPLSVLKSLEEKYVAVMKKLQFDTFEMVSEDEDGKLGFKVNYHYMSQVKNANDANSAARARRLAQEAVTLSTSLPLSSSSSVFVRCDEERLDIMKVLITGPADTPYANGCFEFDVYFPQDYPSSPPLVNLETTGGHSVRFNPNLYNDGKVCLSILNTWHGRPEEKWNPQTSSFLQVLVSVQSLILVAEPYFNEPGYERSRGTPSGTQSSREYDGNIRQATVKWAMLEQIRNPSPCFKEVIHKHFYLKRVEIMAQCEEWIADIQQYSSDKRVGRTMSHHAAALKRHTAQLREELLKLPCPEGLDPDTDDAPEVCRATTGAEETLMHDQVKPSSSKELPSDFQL

Sample 1
Target: Hepatocyte nuclear factor 3-alpha (Foxa1, Mus musculus, UniProt P35582, residues 1-468, full length assumed)
Method: EMSA with sequencing
Molecule type: double-stranded DNA, one strand shown
Sample: in vitro
Concentration: 10 and 20 nM
Notes: whole designed probe, mean of two concentrations, ends assumed
Relative to: negative control set to 0
Reading: higher = stronger binding
Target sequence (chain): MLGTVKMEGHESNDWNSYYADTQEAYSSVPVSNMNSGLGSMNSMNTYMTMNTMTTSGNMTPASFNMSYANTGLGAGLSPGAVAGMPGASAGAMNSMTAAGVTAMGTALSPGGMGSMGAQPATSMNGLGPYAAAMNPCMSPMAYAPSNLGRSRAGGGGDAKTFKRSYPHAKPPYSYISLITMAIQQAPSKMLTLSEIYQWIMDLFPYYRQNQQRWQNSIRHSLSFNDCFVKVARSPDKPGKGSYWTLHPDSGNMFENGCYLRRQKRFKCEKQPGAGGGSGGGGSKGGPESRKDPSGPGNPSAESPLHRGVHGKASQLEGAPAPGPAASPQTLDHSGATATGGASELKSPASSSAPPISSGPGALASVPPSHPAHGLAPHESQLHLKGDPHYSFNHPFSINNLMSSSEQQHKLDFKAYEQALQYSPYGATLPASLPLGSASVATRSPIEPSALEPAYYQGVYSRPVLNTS
Oligonucleotide | normalised bound fraction [ratio]
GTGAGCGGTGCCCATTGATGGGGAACTTTACCTATGTCAAGAATGCATTCTTCTGCCTTTATAGTTCCAGCATCTCTTGAGTCTATATTCTAAATTAATAATGACTGAGCCCCAGTTGCTTGTTTACATTTTATGGGCCTAATTAAATTAGGAAAAATAATCACCTGCAAGCAAAGATGTGATACACTTCCTGTACGACCAAAAAATACTCTCAGGTTATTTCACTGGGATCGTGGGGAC | 0.389
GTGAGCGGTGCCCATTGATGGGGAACAATATTTCAAACACTACGTACCCCAACTGACATTTGAGTAGCAGTTAAGTTCTTGGAACGCTGCCATTTTGATCTAGCTGTTACGTAACCATTGTAAACAGGATGAAATAGGGCAGTTAAAAGACTAATGGTCAGTGAAATCTACAACAGGAATGGAAAGAATTTTCCCCTTAAAAATTTGGAAATCCTTATTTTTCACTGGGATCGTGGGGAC | -0.00155
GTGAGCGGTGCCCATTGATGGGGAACTTCCAAATACTCTTTTGAATTGAAAATGGTGAGAAGCGTAAATTATATGACACTGGAAACGTCTTTCCTATTTCATTTACGATCAAGAACTACTGTTTGCATTTGTATTATGTAGCTACTGTAGAAATTGACCAAATGTTGACAGACAAAAGGCACATGCACCCTGACAAGAGCCAAAACAAACAGGAAGGAATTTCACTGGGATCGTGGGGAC | 0.378
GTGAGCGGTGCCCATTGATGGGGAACAGGTATTTTGCTGCCACACTGATAGTTCAGTGAATTGCACTTTTGGATCTTGGAGAATGGAGAGAAGCAGCTAGGCAAATAATTGGCAAGAAAAGTAATCTGTTACAGTGCAGCTTAGATTACCCACTCTGCCTATCTGCGTTTCTGAAATTGGATTCCTTGGCTCTGTGAACTAGTTAGCCTTCCTTTAGAGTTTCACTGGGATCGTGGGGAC | 0.0716
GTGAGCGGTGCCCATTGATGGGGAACTTATGATCTGAGTATATATAGTAAGTACCTCCCCTTTCAGGGTAAGGCAGTAGGTAATGGTGAACAGGGAAGCAAAAGGTGACTCAGGTTGAGTAAACAACACCAAGCATATCTGACTCAAGGAATGCTTCAGAGGCCAGGGGTGCATGCCTGTAATCCCAGCACCTTGGAAGGCTGACACAGGAGGATCACTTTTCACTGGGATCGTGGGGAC | 0.397

Sample 2
Sequence: B1 (ARIH2 RING domain)
Method: yeast two-hybrid
Sample: yeast
Notes: mostly zero background
Relative to: not given
Reading: higher = stronger interaction
B1: ARIH2 RING domain (UniProt O95376); chain HVPTSHPPHHCAVCMQFVRKENLLSLACQHQFCRSCWEQHCSVLVKDGVGVGVSCMAQDCPLRTPEDFVF
target | lacZ reporter activity
UBE2Z UBC core domain (UniProt Q9H832) | 0
UBE2J1 UBC core domain (UniProt Q9Y385) | 0
UBE2E3 UBC core domain (UniProt Q969T4) | 0
UBE2M UBC core domain (UniProt P61081) | 0
UBE2R2 UBC core domain (UniProt Q712K3) | 0
UBE2O UBC core domain (UniProt Q9C0C9) | 0
UBE2G1 UBC core domain (UniProt P62253) | 0
UBE2L3 UBC core domain (UniProt P68036) | 0
UBE2J2 UBC core domain (UniProt Q8N2K1) | 0
BIRC6 UBC core domain (UniProt Q9NR09) | 0

Sample 3
Target: CCNB1, cyclin fold, Cln2 fusion (human)
Method: yeast growth competition, sequencing
Sample: yeast
Notes: weak parent motif
Relative to: not given
Reading: higher = stronger binding
Starting sequence: LLGL2 docking peptide (human); KSLKKSLRQSFRR
Substitution | normalised enrichment score
KSLKKSLRQSFRA [R13A] | 0.457
KSLKKSLRQAFRR [S10A] | -0.311
KSLKKSLAQSFRR [R8A] | 0.252
KSLKKSLRQSARR [F11A] | 0.405
KSLKASLRQSFRR [K5A] | 0.549
KALKKSLRQSFRR [S2A] | 0.331
KSLKKSLRASFRR [Q9A] | 0.498

Sample 4
Target: RNA binding protein fox-1 homolog 2, RRM domain, GST-SBP tag (RBFOX2, Homo sapiens, UniProt O43251-10, residues 100-194)
Method: RNA Bind-n-Seq
Molecule type: RNA
Sample: in vitro
Concentration: 365 nM
Notes: natural RNA segment, single round, ends assumed
Relative to: no-protein control
Reading: higher = stronger binding
Construct (chain): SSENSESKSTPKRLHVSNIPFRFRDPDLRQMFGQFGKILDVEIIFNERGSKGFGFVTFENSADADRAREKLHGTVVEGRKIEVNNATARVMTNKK
Oligonucleotide | RBNS enrichment (R)
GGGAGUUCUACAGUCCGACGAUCGUGCUCUUCUAAAUGGCCUGUGAGCCAGGCUGUGGGAACUCUAGCUGCUGUCAGCCCCUCCUGUAGGAGCUGGCCCUGCCCAGGCUCCUGACUUCCCUCAGGAAGUCUUUUGGAAUUCUCGGGUGCCAA | 0.159
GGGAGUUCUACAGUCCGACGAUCCUACUAUAACAUAGGCAUAAAUAUUUUCGUGUUUAUAUGCAUAUACAAGUUAAAAUAAUUAGAAACUAUGACUGCGCCUAGUAAAGUCAUCUAGGUUUAUAGUUCAGUAGUGGAAUUCUCGGGUGCCAA | 0.515
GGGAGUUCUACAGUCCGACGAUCUAGGAGGGGAUCGGGUUUGGCCCCCAGCCCCGCUCACGCCAGUCCCUCUUCCUCUGCCGGGAGGGUGUUUUCAACUCCAAACCCCAGAGAGGGGUUGUAGAUUGGGUCCAUGGAAUUCUCGGGUGCCAA | 0.465
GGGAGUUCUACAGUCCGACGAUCGUGUGAGUGAGGGUAUGUGCACCUAAGUGUGUACAUGUGUGUAUGUUGUGAAAGUGUCUGUGCACAUGAAUGUUUGUGUGUGUGUGAACUCUUUCUUACUGCUGGAAGUCUGGAAUUCUCGGGUGCCAA | 6.32
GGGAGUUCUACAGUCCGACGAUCGAACAUAGUAUCAUGAAUGGAGUAGACAGGGAGGCUGCAGAAGCCAUUUCUCUUUGUAGAUAAAAAGCAUUAUCUAUGAUUGUUGUAUAAUAAAUUGAUUUUUACAUUAAUGGAAUUCUCGGGUGCCAA | 0.485
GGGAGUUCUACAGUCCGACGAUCCAGCAGGGGACUUGACUGCCCUGGGCGCCCUGCCCCUCCCGCUGCGUGUCCAGGUCCAAAGUGGAGAGCCUGCCUUUGGGUUUAGUUCCCGAAUCAGAAUCCCAUCUCACUGGAAUUCUCGGGUGCCAA | 0.333
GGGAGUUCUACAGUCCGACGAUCACCACAAAACAAACUGACCCUCCUAUUUUUAACUUGGAUACCUGCUAUUCUGCCAAAAGACAUUUUCUAGAAUAGUUUUUAAUGGGUUACUGUCCUUACCCUUCAUCCAAUGGAAUUCUCGGGUGCCAA | 0.464
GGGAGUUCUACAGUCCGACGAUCAAGGUCCCUUUCUGGCUUCUUGGUUCUCCAUGUGACCAAAGCCCAGUGUGGCUUCAUGGGAGCCCUGUUACUUCUCCAUGAAACCCCAGCUCUCUAGGCCUGACUGCCACUGGAAUUCUCGGGUGCCAA | 0.208

Sample 5
Target: Prothrombin, mature alpha-thrombin (F2, Homo sapiens, UniProt P00734)
Method: aptamer microarray, sandwich
Molecule type: DNA with 2'F-ANA
Sample: in vitro
Concentration: 200 nM
Notes: whole 15-mer aptamer, many near background
With: Cy3 exosite-II aptamer, 400 nM
Reading: higher = stronger binding
Oligonucleotide: GGTTGGTGTGGTTGG
Modification | mean fluorescence intensity [a.u.]
2'F-ANA at 1 2 6 7 10 11 | 51
2'F-ANA at 1 2 3 4 6 7 9 10 12 14 | 51.8
2'F-ANA at 1 2 6 7 8 9 10 13 14 | 48.6
2'F-ANA at 3 7 10 | 602
2'F-ANA at 1 2 3 5 9 10 11 14 15 | 52
2'F-ANA at 1 4 8 9 12 13 15 | 184
2'F-ANA at 1 2 4 5 12 13 | 83.9
2'F-ANA at 3 6 9 10 13 | 482
2'F-ANA at 1 2 3 4 5 6 7 8 10 11 12 | 55.4
2'F-ANA at 1 2 3 5 9 13 15 | 50.7
2'F-ANA at 2 3 4 5 6 8 9 10 14 15 | 47.2
2'F-ANA at 6 7 8 12 15 | 810
2'F-ANA at 3 4 5 7 12 13 15 | 126
2'F-ANA at 3 4 5 9 12 | 234
2'F-ANA at 1 2 3 4 6 7 8 9 10 11 12 15 | 91.2
2'F-ANA at 4 7 8 12 | 786
2'F-ANA at 1 5 10 11 12 14 | 47.2
2'F-ANA at 2 3 4 6 7 9 10 11 12 15 | 227
2'F-ANA at 1 5 6 7 8 12 | 129
2'F-ANA at 1 2 3 4 5 6 7 8 13 15 | 53
2'F-ANA at 1 2 4 6 8 10 13 15 | 52.8
2'F-ANA at 3 4 10 11 13 15 | 229
2'F-ANA at 1 4 5 7 10 12 | 68.8
2'F-ANA at 2 5 11 13 14 15 | 51.9

A few entries again (sample 5):
Modification | mean fluorescence intensity [a.u.]
2'F-ANA at 3 4 5 9 12 | 234
2'F-ANA at 1 2 3 4 6 7 8 9 10 11 12 15 | 91.2
2'F-ANA at 4 7 8 12 | 786
2'F-ANA at 1 5 10 11 12 14 | 47.2
2'F-ANA at 2 3 4 6 7 9 10 11 12 15 | 227
